Published values collected from several papers.
Lines come from different studies, so protocols differ. ± gives the spread as reported.
UniProt Q9CPV9, sequence (whole entry, looked up): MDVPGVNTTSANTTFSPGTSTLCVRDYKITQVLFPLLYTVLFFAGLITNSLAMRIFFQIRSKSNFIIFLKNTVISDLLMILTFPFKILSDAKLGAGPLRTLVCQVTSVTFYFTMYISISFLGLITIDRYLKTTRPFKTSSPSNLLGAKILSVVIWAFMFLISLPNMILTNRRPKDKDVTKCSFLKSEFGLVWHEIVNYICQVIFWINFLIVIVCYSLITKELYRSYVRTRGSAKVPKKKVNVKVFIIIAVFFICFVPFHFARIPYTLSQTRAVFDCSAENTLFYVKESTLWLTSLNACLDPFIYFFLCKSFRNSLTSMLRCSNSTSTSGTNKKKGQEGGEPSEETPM
UniProt P20813, sequence (whole entry, looked up): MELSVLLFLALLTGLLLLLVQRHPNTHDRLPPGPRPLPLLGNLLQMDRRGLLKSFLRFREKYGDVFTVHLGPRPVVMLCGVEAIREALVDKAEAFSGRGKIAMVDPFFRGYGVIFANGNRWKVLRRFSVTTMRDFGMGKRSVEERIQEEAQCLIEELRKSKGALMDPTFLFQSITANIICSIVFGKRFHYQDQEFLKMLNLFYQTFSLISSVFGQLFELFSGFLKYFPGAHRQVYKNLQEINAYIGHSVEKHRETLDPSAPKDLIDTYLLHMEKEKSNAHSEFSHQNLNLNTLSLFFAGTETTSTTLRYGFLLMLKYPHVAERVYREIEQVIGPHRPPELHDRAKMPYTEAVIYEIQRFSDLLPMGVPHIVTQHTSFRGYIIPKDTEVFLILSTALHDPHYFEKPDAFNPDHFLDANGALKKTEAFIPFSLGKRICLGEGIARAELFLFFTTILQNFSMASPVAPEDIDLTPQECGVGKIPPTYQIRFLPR
UniProt P11980, sequence (whole entry, looked up): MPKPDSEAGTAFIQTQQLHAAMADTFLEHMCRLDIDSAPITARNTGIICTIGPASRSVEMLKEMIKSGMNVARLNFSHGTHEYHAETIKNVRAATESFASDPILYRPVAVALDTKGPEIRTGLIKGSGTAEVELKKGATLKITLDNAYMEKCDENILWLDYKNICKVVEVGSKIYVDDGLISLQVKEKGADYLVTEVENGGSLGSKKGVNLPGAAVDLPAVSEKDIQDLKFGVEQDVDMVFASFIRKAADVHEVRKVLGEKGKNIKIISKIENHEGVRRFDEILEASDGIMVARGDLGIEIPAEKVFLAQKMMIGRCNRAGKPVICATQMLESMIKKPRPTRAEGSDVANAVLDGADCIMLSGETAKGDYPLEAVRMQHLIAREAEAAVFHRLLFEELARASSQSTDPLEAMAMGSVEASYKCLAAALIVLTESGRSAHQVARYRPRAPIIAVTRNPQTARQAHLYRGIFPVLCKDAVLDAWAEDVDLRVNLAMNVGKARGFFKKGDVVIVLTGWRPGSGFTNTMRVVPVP

`C=CC(=O)Nc1cc(Nc2nccc(-c3cn(C)c4ccccc34)n2)c(OCC(F)(F)F)nc1N(C)CCN(C)C` — result for “activity vs control”: 97.8% (Cytochrome P450 2B6 (CYP2B6, Homo sapiens, UniProt P20813); enzyme activity, inhibitor; human, liver microsomes; 0.1 µM).
`N#Cc1cc(C(=O)OCC[18F])c(C(F)(F)F)nc1N1CCN(C(=O)Cc2ccccc2)CC1` — result for “peak brain SUV”: 0.98 ± 0.19 (P2Y purinoceptor 12 (P2ry12, Mus musculus, UniProt Q9CPV9); PET; mouse aged 60 weeks; 11.1 MBq).
The radioactivity uptake of `CNC(=O)c1ccc(N2CCN(Cc3ccc4nc(C)c(=O)[nH]c4c3F)CC2)c([18F])n1` is reported as 1.05 SUV (Poly [ADP-ribose] polymerase 1 (Macaca mulatta, UniProt H9FQ77); male rhesus monkey, hippocampus; intravenous, dose not given, baseline PET).
The plasma concentration of `COc1cc2c(CCNC(C)=O)c[nH]c2cc1OS(=O)(=O)O` is reported as 21.9 ± 10.7 ng/mL (Abcg2 (mouse); FVB/N Abcg2-/- male mice; oral, 10 mg/kg melatonin, 1 h).
Under “half-life of fast phase”, `Cc1cccc(Cn2ncc3c4cc(F)c(CN(C)C)cc4n(C)c3c2=O)n1` is recorded as 60 h (Pyruvate kinase PKM (Rattus norvegicus, UniProt P11980); enzyme activity, activator; rat, retina; intravitreal, 10 µM vitreous concentration).
`[64Cu+2].c1ccc(CNCc2ccc(CN3CCCN4CCNCCCN(CC4)CC3)cc2)nc1` has a tissue uptake of 1.97 ± 0.09 %ID/g (CXCR4; NOD/SCID mouse, U87 and U87-stb-CXCR4 xenografts, heart; iv, 240 min, ex vivo).
For `COc1cc(-c2nc3ccccc3s2)cc(CN(Cc2ccccn2)Cc2ccccn2)c1O`, the pCu was 10.4 (Cu2+; 50 µM, pH 7.4, 1:1 metal:ligand).
`[64Cu+2].c1cnc(CNCc2ccc(CN3CCCN4CCNCCCN(CC4)CC3)cc2)nc1` gave a tissue uptake of 61.5 ± 2.75 %ID/g (CXCR4; NOD/SCID mouse, U87 and U87-stb-CXCR4 xenografts, liver; iv, 90 min, no blocking dose, ex vivo).
`COc1cc(-c2nc3ccccc3s2)cc(CN(C)Cc2ccccn2)c1O` gave a log K of 16.5 (Cu2+; UV-vis pH titration; M2+ + L- = [ML]+ complex).
